Measured values pooled from the literature.
Parts stem from different laboratories: compare values within a part only. Substitutions count along the parent as printed.

Sample 1 — technique: RNA Bind-n-Seq; molecule type: RNA; matrix: in vitro; tested at: 100 nM; relative to: input RNA pool; reading: higher = stronger binding; endpoint: bound/input enrichment
Target: RING finger protein unkempt homolog, zinc fingers 1-6, SBP tag (UNK, Homo sapiens, UniProt Q9C0B0, residues 30-357)
Sequence of UniProt Q9C0B0 (30-357, looked up): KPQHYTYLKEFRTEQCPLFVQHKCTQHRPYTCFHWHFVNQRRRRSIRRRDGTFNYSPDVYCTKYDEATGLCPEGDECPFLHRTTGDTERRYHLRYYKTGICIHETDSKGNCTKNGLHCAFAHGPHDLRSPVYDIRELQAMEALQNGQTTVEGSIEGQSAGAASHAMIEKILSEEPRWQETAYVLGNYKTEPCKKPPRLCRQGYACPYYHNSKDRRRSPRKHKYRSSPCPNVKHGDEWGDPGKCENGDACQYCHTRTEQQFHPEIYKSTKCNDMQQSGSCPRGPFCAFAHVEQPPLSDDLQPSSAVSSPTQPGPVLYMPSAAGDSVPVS
Notes: RNA with constant flanks, vertebrate orthologous sites, ends assumed
Shared flanks, not repeated: GGGAGUUCUACAGUCCGACGAUC … CAACAGAGGAUUGAGCAUCA
UCUCUCGUUUUAUAUGUCCAAAACUGGCUAUGACUUUUUAAAACAUUUGCUAGUUUUAAUUAGUUCUGCCCUCAUGAAGUAGCAUUAGAGUCUGUCACUAACAGAUACCUGUCUGUAUAC: 0.367 ratio
UGUGUUGGUGCAGAGCAUCUGUACCAGUGCUCAUCAUCCCUUCUUCAUACCAACUGUCUCUAGUUGUAGGAAUUUAAUAUUUUUAAAAGUUUUACAUUGCUGUAUAUUCAAAGAUUUGUU: 0.571 ratio
GAUGUUGAUUUCUAUUUAUGUUGGAUUCAUUUUCUGUUAUGGUUUUAAUUUGCUAUACCAAAAUGGUGUUCGUAAAAAUUGACCUGUAAUGGGAGUUGCUAUAGUGAAAUGCAAUAUGUU: 0.279 ratio
AGCAACUCAAGGAUUCAGGACUGGUUUUACAAAUAUACCAAGUAGAUAUGGAACUAACAAUAGAAUUGGACAACCAAGACCAUGAUAUGCUCUAAUUUAAUUUAUUUUUAUCAGGAAUAU: 0.485 ratio
GCUUGCCCGUUGACCCGAAAAAUAGGACUUUUUAGAAUUGCAUUGCCACUUCUAAAAUCCUAGCAAUAUUAGAAUAACACAUCAGUGAGAUAAAUUUUACUCAAUUAUUUUACAAACCAA: 1.07 ratio
CAGGGUGGGACCUGGGCCCCACCGCUCAGUGGCCCACUGGCCGUCUCAGCCAAGCCACUUUAGGUCCAUUUUUUAUUUUAACAAUGCUCUUCCAACCUGUGCAUAAGCCUGAGAUUUGGA: 1.32 ratio
ACAGCAACAGCAGAGGCUGUUUGAGCUUUGGGGAAAUGAGCUUUGCUUUUUAUUUUUGAAUAGGAUACUUUUAUAUGAUGGGUGCUUUGAGUGUGAACGCAGCAGGCUCUUCAUUUCAGA: 1.36 ratio
UAUGUAGAGAACAUUUUUCAUUGACCCUCCCCCUACUGUGAAAGUCCCUAGCAGUUUAUUUAGAAUCUUAAUUUUUCUAAUUCAGGCUCAUUGUAUUAGUCAUUUUUAGCCCAGAAUUAA: 4.63 ratio
UCGCCCAGUUCAUACCAGCAGCUCCGCUCUCAGACGUGCACAGCUUACAAAGGAACAGUCUAGUGGGAUUUUUAUUUUAAUUUAAAACCUGCUUUUCCCAAAACUGAUCAAGAAGCUACA: 0.575 ratio
AAUUUUUAAAAGUUUUUUAAUUUAAUUUUUCCUUUUGGGAGUAAAGUUUGCUCUACCAAAUAGUGAUUGUAACAAACUGAUCUGUUUUGGAUGUUGCUAUAGUGACAUGCAGUUAUAUAU: 0.321 ratio
AGCAACCCAAGGAUUCAGGACUGGUUUUACAAAUAUACCAAGUAGAUAUGGAACUAACAAUAGAAUUGGACAACCAAGACCAUGAUGUACUAUAAUUUAAUUUAUUUUUAUGAGGAAUAU: 0.641 ratio

Sample 2 — technique: RNA Bind-n-Seq; molecule type: RNA; matrix: in vitro; tested at: 365 nM; relative to: no-protein control; reading: higher = stronger binding; endpoint: RBNS enrichment (R)
Target: RNA binding protein fox-1 homolog 2, RRM domain, GST-SBP tag (RBFOX2, Homo sapiens, UniProt O43251-10, residues 100-194)
Notes: natural RNA segment, single round, ends assumed
Shared flanks, not repeated: GGGAGUUCUACAGUCCGACGAUC … UGGAAUUCUCGGGUGCCAA
Construct (chain): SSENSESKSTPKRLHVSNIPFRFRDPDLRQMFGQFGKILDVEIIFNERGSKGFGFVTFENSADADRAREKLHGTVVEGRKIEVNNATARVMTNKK
UGCUCACACGGUUACCUAGGGUAGGCUGGGAGCCAUUGUGGGGUGCAGGGCCUGGCUUGUACUUGGUGUGUGCAAGGCCCAAUGGCAGCCUGCAUACCCAGCCUACUCUU: 0.317
GCUUGACUGGGCGUCUUCCGCUGCAUAACACUCAAGGUGUCUGCUCUAGUCAUCCAGAAACCCACUCCCUUCUGAAGCCCCUCCUUGGGCCGGGUUGUAUCAGGAGGAUU: 0.443
CUUUGGCCACUUGAAGUUCCUGUUAGUGAGGCUCCAAGGAUCUACCAAGGUGCUAUGGCGCAAAGGGCCCUUCUGCAGAAACCCAGUUUUCCUACCUGGGCUGGUUUCUU: 0.383
AACUCCAAGUGAUAGUGAGACCCAUCUCUCCUCUACCUUGAAGAGAGCAGAUCAUAGUAUAUGAGAUAGGAAUUCCCAUCCUAUUUGAGUUGAACUCUCUUCUGUACCUC: 0.328
CAGUUCUCUCUGAUUUGGUUUGUUCUGUCUCAGGCUUCUGUGGCAGGACUGGCCCAGGGAGGAGGAAGCCAGCAGCACACCUGGGGAAUGGGGUCCCGGCCGGGAGGCUU: 0.496
CUGACCUGGGCCCACAGAGCCUGGCUUUGGUCCCCAGCAUUGCAGUAUGGUGUGGUGUUUGUAGGCUGUGGGGUCUGGCUGUGUGGCCAAGGUGAAUAGCACAGGUUAGG: 0.595
CACUUAGGUGUAGAGCCCCACAGAUGGACAUGUGAGGGAAUUCUUGGGGUGACAUAAACUAGAUAAAGGGCCUUUCUUGGAGAACUAGGCUUAAGGAAUAUCCCUGUCUU: 0.551
GUGGCAGUCACGUGGCUGACUCCUGUCUUGGGCCAUAGGCCUAGAUCCCUACCCAUGGGAAUGCAGAGCCUUCUCCGCAUGUGUGCGUGCAGCUGUGUCUUAUGUAUUUA: 1.25
CAGAUUGACACACACAGAUUGGUGGAAGAAUAGCUUCAGUCCUCUUCCUUCAUCCCAUAUGUAGGUAGCCUUGCUUGACAAAUGUUUCUUCUAACUCUCCUUCUUCUGAA: 0.543
CAAGCCCUACUGCCAGCCCUGCUUCCUGAAGCUCUUCGGCUGACAGCCCGCUCGGCUCGCCCUCUCCCCCGGAGGCCGCGCCCUCCCGGAAAAGCCGGGUCCUCCAGACC: 0.143
GGCAGGAGGUGGCAUGUGCCCAGCACUUCCAUUAAUCUGAGCCUAGGAGUUGAAUUCUUUGGCAAGGUUGGAUUCUGAGGUCCUUAUUAUGUUAAUGAUGGUGCAAUACU: 2.24
CUUGCUUUUGGAGGUUGUUUUGGGGAAAAAACAGUUUAUAUAAACUGAUUUUUGUAGUUUUGGUAUUUAAAGCAAAAACAAACAAAAAACAAACCCCUUUUUGGUACCUG: 0.253

Sample 3 — technique: RNA Bind-n-Seq; molecule type: RNA; matrix: in vitro; tested at: 200 nM; notes: whole 134-nt RNA, ends assumed; together with: 150 mM KCl; relative to: input library; reading: higher = stronger binding; endpoint: log2 enrichment
Target: Ras GTPase-activating protein-binding protein 1, full length (G3BP1, Homo sapiens, UniProt Q13283)
Sequence of UniProt Q13283 (whole entry, looked up): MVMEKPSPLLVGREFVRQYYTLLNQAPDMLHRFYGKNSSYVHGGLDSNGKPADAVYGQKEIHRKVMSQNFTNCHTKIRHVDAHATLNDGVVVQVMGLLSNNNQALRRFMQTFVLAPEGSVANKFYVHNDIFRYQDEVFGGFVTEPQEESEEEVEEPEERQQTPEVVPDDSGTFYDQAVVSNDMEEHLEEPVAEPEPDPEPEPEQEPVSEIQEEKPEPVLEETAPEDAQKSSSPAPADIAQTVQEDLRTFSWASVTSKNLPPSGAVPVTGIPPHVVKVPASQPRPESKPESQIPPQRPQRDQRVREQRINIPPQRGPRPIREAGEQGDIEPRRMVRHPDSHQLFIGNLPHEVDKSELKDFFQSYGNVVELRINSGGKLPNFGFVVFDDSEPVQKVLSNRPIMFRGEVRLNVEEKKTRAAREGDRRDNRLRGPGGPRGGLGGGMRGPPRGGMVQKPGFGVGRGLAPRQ
Shared flanks, not repeated: GGGAGUUCUACAGUCCGACGAUC … UGGAAUUCUCGGGUGUCAAGG
CACAGACAACACGCACCCACACAGGCACAGAGGGAAGGGGUUGGGAUGGGGACAGGGUGCACAGCAGGGCGGGGUAGGACCCCAGCCCCU: 1.73
CCUGUGCUACACAUCGUAUGUACCGAAUCGGGGAAAAAAGGGGAAAAAAGGAAAAAAGGGAAAGUAUUAUGUUACGCCGUUCGGAUCUGC: -0.442
UCCUGUGCUACACAUCGUAUGUACCGAAUCGGCCCCCCGGGCCCCCCGGGCCCCCCGGGGAAAGUAUUAUGUUACGCCGUUCGGAUCUGC: -0.631
GCAGGAAGUAAAAACAAAUGGAAAUGCUUCGGUUAGUGGCAGGGGUGGGGGUUGCUAAGGAAAGGGUGGGAUGGGAGUGGGUAAAGAGUU: 0.649
GCAGGAAGUAAAAACAAAUGGAAAUGCUUCGGAUAGUGGCAGGGGUGGGGGUUGCUAAGGAAAGGGUGGGAUGGGAGUGGGUUAAGAGUU: 1.25
UGGCCCUGGUGGCAUGCGGGGAGGAAGAGGUGGCCUCAUGGAUCGUGGUGGUCCCGGUGGAAUGUUCAGAGGUUGCCGUGGUGGAGACAG: -0.132
UGUGCUACACAUCGUAUGUACCGAAUCGGGGUUUUUUUGGGUUUUUUUGGGUUUUUUUGGGGAAAGUAUUAUGUUACGCCGUUCGGAUCU: -0.836
AGUCCUGUGCUACACAUCGUAUGUACCGAAUCGGGGAAAGGGGAAAGGGGUUUGGGGAAAGUAUUAUGUUACGCCGUUCGGAUCUGCACU: 0.551
AAGUCCUGUGCUACACAUCGUAUGUACCGAAUCGGGGUUUGGGGAAAGGGGUGGGGAAAGUAUUAUGUUACGCCGUUCGGAUCUGCACUU: 0.928
UCCUGUGCUACACAUCGUAUGUACCGAAUCGGAAAAAAGGGAAAAAAGGGAAAAAAGGGAAAGUAUUAUGUUACGCCGUUCGGAUCUGCA: -0.605
ACCAUGCAGGUGGGCAUCUUUGGGAAGUGGGGCAAGGGGGGGAUAGUGAGGGGGGUAACACUUUGGGAACAGGUGGUCCCAGGUCGUUUC: 1.04
GCCGGAAGUAAAAACAAAUGGAAAUGCUUCGGAUAGUGGCAGGGGUGGGGGUUGCUAAGGAAAGGGUGGGAUGGGAGUGGGUAAAGAGUU: 1.36
UCCUGUGCUACACAUCGUAUGUACCGAAUCGGGAAAAAAGGAAAAAAGGGGAAAAAAGGGAAAGUAUUAUGUUACGCCGUUCGGAUCUGC: -0.426
ACCAUGCAGGUGGGCAUCUUUGGGAAGUGGGGCAAGGGGGGGAUAGGGAGGGGGAAAACACUUUGGGAACAGGUGGUCCCAGGUCGUUUC: 1.12

Sample 4 — technique: DHFR PCA, deep sequencing; matrix: yeast; together with: (+)-ABA 4.8 µM; relative to: wild-type fitted maximum; reading: higher = stronger binding; endpoint: relative binding score
Target: ABI1, truncated, D143A, DHFR fusion (Arabidopsis thaliana)
Notes: methotrexate growth selection, single substitutions
Parent: PYL1, truncated, DHFR fusion (Arabidopsis thaliana); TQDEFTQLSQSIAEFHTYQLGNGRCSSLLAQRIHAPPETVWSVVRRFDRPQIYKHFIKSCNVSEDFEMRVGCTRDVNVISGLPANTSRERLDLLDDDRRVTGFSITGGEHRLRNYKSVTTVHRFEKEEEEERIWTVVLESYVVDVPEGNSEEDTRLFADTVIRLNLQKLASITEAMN
I33L: 0.532%
G23P: 0.611%
N77I: 75.9%
A30G: 56.2%
N22Y: 69.3%
E125T: 78.3%
I133H: 76.2%
T135K: -9.1%
N61E: 79.3%
E14N: 30.4%
L29D: -3.31%
F5Y: 62.6%
T6D: 77.7%
R155M: 43.6%

Repeated from above (sample 4):
T135K: -9.1%
N61E: 79.3%
E14N: 30.4%
